Published values of several laboratories.
Numbered parts are unrelated; each lists some results of a single study.

Block 1
Target: RNA binding protein fox-1 homolog 2, RRM domain, GST-SBP tag (RBFOX2, Homo sapiens, UniProt O43251-10, residues 100-194)
Method: RNA Bind-n-Seq
Molecule type: RNA
Matrix: in vitro
Tested at: 365 nM
Notes: natural RNA segment, single round, ends assumed
Reference: no-protein control
Reading: higher = stronger binding
Constant ends, left off below: GGGAGUUCUACAGUCCGACGAUC … UGGAAUUCUCGGGUGCCAA
Target sequence (chain): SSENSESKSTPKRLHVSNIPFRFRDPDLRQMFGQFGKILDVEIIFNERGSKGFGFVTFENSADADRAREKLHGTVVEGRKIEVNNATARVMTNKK
Strand	RBNS enrichment (R)
CUGCCCUGUGAGGUGUGGGAGCCCUGAUGCUGCCGUGUGAUGUUUCAAUAAAGGUGGAUCUCACUGUGGACGUGUCUCCCGGGCCGAGGUCCCUGUGGCAAAGAAACACU	0.306
UGAAAAACACUAAUUCUCUUCAGUCUUCUUUAGUGAAGACUUACACUUGCAAAGUCUGUGCCGCCUAUUCUGACUCAUGCUGUCUAGGUGCCCAGUGUAUGAGAGCCACU	0.323
CACCUUCAAUGACUUCUAAUUUAUAUUAUCCAUAGGUUUCUCUCCCUCCUUCUCCUUCUCACACACAACUGUCCAUACUAACAAGUUUGGUGCAUGUCUGUUCUUCUGUA	1.9
GGAAAUUAUUUUAGGGCUGAGAUAGGGGUGGAACGAGCAGGCUUGUUUCCACCAAUAGUGCCAAGAAGACACUGCCUGAUUCUUCCCCGGGAGGAGUGACUCCUCUGAAG	0.237
AUGUUUGCAAUUAUGCUGUGAGAAUUUAAAUGUGUUAGAUGGAAAAUGCUAUUGGCAGGGAAUAAUAAUAAAAAAAAAAGAAAAUCAUUCUGUUUCCUGCAGUGGGAACU	1.7
CAUCACUGGAACCCGCACUAAACAAGGACCUUUGGACCAGACAAGAAGUCUUCCCUCAACUACGUGUGAUGACCAAGUCCAAGGUUGACCAGGGACUGUCUACAGCAGCC	0.396
UUCCAGGUGUACGUAAACUAACUGAAAGUAUUAAGGACAUGCCUGUCUAUACAUGGGUUUCAUUGAUGGUAUCUGUAUCAUCUUGACAAAUCGUGAACUGCUGCUGUAUG	0.462
ACCUGGCACAGUUUUCUCUGAACUCUGGAAGACUUCUGAUGGGUGGUGUUCAGCUUCGACAAAGAUGACGUUUUCUGAGAACUUAGUCCGUCCGUACCCAGCUAACCUCU	0.247
UGACUAAAUCCACACUUUCUUUAAAGAGAUGCAGAUGAAUUACUUUUCUGUUAAUAUAUAGAAAAAUACACAGGAGAACAUGCAGAUACAUGUAAAUAUCUACAUACAGG	0.394
GGACGCCUUCCCCGCCCUCGAGGCUUCCCGGCUCUCAGAGGCUCCUUUUUUCUCUCCUGCUCCAGGCCUCAGCUCCAGUCCGCUUCGGUUAUUGACCUCCUGGGUCCUAC	0.41
ACUUAUACUAUUAAAAUUGUUGCGAUGUCACUUAGCUUGACUUUAAAGUUGGCUGGACUGUUAUACUAUGAAUAUACUACGAAUUUGUAAACUAUCAUUAUAAAUUGAAG	0.405
CUCCAGGUCCCGGAGGGGAUUUGUGGACCUCUCUUGUCUCCCCACCACUCCAGUGCAUUUCCGCCUGGCUCCUAGAAGCCCCAUUCAAUAUCACUACUCUUUAACGAGUG	0.789

Block 2
Target: Histone acetyltransferase KAT6A, both winged helices, GST fusion (KAT6A, Homo sapiens, UniProt Q92794, residues 1-181)
Method: protein binding microarray
Molecule type: double-stranded DNA, one strand shown
Matrix: in vitro
Tested at: not given
Notes: 8-mer, flanks averaged, mean of 2 arrays, mostly near background
Reference: not given
Reading: higher = stronger binding
Residues (chain): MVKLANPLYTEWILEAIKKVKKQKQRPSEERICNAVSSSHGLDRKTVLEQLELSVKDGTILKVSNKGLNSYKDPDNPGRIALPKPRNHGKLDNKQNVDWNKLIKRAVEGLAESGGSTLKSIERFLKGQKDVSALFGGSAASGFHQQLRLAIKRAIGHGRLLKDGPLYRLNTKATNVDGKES
Strand	E-score
CCGGCAGC	0.243
ACGCAGTC	-0.0149
TCGTTAAA	-0.0311
GATTTGAA	-0.064
ATTGCCTA	-0.136
CACTTACA	-0.0104
CACCGGAG	0.114
GCAACTTA	0.00243
CCAGCTAG	-0.267
GCCCCTTA	0.00145
CTCTTCTA	0.027
CTATTAGC	-0.00217
AAGGATTC	-0.11
ATGCATCC	-0.132
GCGGATCA	0.103
GACCTCCC	-0.0581
CGTAGTGC	0.072
ATAGGATG	-0.105
CTCGTCGC	0.0736
CCCTCATC	-0.114
GCACACAA	-0.0722
ACGTGTCC	0.0479
ATGTTTAG	-0.0422

Block 3
Target: Interferon regulatory factor 7, full length, phosphomimetic (IRF7, Homo sapiens, UniProt Q92985, residues 1-503, S471D/S472D/S475D/S476D/S477D/S483D/S484D/S487D)
Method: protein-binding microarray
Molecule type: double-stranded DNA, one strand shown
Matrix: in vitro
Tested at: 2200 nM top
Notes: 60-bp whole probe
Together with: salmon DNA 0.4 mg/ml
Reference: random background probes
Reading: higher = stronger binding
Constant ends, left off below: GCCTAGCAC … GTCTTGATTCGCTTGACGCTGCTG
Target sequence (chain): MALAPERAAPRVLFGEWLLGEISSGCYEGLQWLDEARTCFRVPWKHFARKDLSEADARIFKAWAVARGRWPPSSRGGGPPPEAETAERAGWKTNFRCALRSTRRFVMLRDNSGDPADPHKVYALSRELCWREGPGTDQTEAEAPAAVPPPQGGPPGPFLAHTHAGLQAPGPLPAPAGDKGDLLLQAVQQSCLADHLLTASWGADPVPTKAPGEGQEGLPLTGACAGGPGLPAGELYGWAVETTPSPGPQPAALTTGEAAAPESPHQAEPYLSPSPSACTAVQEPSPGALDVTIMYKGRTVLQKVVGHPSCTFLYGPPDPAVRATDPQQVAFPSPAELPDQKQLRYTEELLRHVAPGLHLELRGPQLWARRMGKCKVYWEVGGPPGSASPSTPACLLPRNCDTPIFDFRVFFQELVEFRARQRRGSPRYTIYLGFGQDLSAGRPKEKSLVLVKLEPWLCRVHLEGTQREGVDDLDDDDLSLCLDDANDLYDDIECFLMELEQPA
Strand	fitted relative affinity [z-score]
CTCTAACTCAAGATTCCTCTCGTGCTA	0.629
GACGGTAGCGGGTTTCGGGACGTGCTA	0.707
AGAGATGTGGGACTCACCTAGTGCTAG	-0.365
TTTCCTTTGCCTCTGAGGCTGTGCTAG	6.12
TCAGCTCTGGCACCTCTAACTGTGCTA	-0.249
TTAGGACTGGGTATCGGTTGGTGCTAG	-0.145
TTAGGTACCGGACTGGGTTAGTGCTAG	-0.566
TTAGCTTTCCTACTGCTTTAGTGCTAG	1.87
TCAGGACTGACTCTTCAGACTGTGCTA	-0.339
GACGGTCTCGGTATCGGGGCGTGCTAG	0.319
TCATGTTTTTTTCTATAACTGTGCTAG	1.34
TTTTTTCTTTTATTAGTGACGTGCTAG	3.2
AACTTTTTTTAATTGAGAAGGTGCTAG	-0.509
GCACGTGACTGTTTCCCAATGTGCTAG	1.41
TTAGGTCTCGACTTTCGGTTAGTGCTA	5.74
GACGGTTCCGGTTTCTGGACGTGCTAG	3.9
TCATTTCTCTTTCACTGACTGTGCTAG	3.95
TCACCTTACTTTATGTAACTGTGCTAG	1.55
GCTCATCTGTCATGTTTGTCAGTGCTA	1.31
TTACGTTTCCTTATCCTTTAGTGCTAG	4.52
GACGAACTGGGACTGGGGACGTGCTAG	-0.366
TTAGGTTTCCTTTCCCTATAGTGCTAG	4.16
CTCATTCGTCATTTCACAGTGTGCTAG	2.38
TTAGGTTTCCTTTTCGTTTAGTGCTAG	6.33
TTAGATATCGGGACGGGATTAGTGCTA	-0.296

Block 4
Target: RING finger protein unkempt homolog, zinc fingers 1-6, GST-SBP tag (UNK, Homo sapiens, UniProt Q9C0B0, residues 30-357)
UniProt Q9C0B0, sequence (30-357, looked up): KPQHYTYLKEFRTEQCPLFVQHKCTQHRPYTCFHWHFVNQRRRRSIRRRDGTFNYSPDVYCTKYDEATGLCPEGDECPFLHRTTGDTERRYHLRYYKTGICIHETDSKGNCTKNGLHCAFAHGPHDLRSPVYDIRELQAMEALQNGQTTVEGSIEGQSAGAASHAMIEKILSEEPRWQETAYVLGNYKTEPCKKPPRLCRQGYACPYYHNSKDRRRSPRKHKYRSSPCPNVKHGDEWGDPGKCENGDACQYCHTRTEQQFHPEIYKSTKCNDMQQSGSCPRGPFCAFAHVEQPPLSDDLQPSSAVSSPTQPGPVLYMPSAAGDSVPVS
Method: RNA Bind-n-Seq
Molecule type: RNA
Matrix: in vitro
Tested at: not given
Notes: RNA with constant flanks, ends assumed
Reference: input RNA pool
Reading: higher = stronger binding
Constant ends, left off below: GGGAGUUCUACAGUCCGACGAUC … CAACAGAGGAUUGAGCAUCA
Strand	bound/input enrichment
ACCCUUUCUGGGGUCCAAGAAGAAUCUGCCCUUUGCUAUCUUCUCCAAGUUGAUGAGUUCCGAUUUUUAUUGGACUGUGGCUGGGAUGAGCACUUUUCUAUGGAUAUUAUUGAUUCCCUG	0.217 ratio
UUGCUCUCUAUUUGUUCCCUUUUGACAGAUUGCAACCCUGCGGAUCCUCUGGUCGGAAGCACCGCCACUCAGUAUUUGACCAACAGAGCAGAACAUGACAGGAUAGCCAGACAGUGGACC	0.194 ratio
GAUGUAGUAGUCAACAUUUUUAUUAACAGUUUUGGAUCCAUUCAAGAAACAACAAUGGACUACCGAGUUAACAUCUUCCUGAGACAAAAAUGGAAUGACCCCAGGCUGAAGCUCCCCAGU	0.52 ratio
CUACUAGUUCAUGGGUCUUUGGCUUUUCCUUUGGGGCUAGAUACCUACCAUGGCUGUGUGACCGCUGCAGCUCGCUAUGGCCGGGGUCGGGUAGUUGUAACUGGUCAUAAGGUUUUAUUU	0.218 ratio
GCCAGCAAGCCUCAGAGUAUCCAAGAAUCAACUGGCAGUAUAAUUGAAGUUCUGAGUAAAACCGAUUCAGAAGGAGGAGUUUCAGCAAAUCAUACUAGUCGUGCAACGUCUACAGCAACA	0.262 ratio
AGAUACAGGCAAAGUUGAAUCUUCUGUCUUCCUGGCAAAAAUGGCAUAAAAACUGAGUUGCCCGCUCAAAUUCCUGGGUUUCAUGGAAUUAUGAUUGAGGCACUACCCUUGUAGUGGCCG	0.14 ratio
CAGGGUGGGACCCGGGACCCGCGGCUCAGUGGCCCGCUAGCCACGUCAGCCAAGCCACUUCCGGUCCAUUUUUUAAUUUUAACAGUGCUCUUCCAUCUUGUGCAUAAGCCUGAGAUUUGG	0.782 ratio
UUCUUAGACCUUUUAGACAUCUUAAUAAGAAGUCCUGGGAGUAUAAAACGAGAAGAAAAGCCCGAAGAUCUUAAGCUACUUUUUGUACAUGUACAUCAUCUUAUAAAUGAAUAUCGACCC	0.72 ratio
AUAAUGUUUGAGUCCUUCAAUGUUCCAGGCUUGUACAUUGCUGUGCAGGCUGUUCUUGCCUCCGCUGCAUCUUGGACCUCAAGACAAGUAGGAGAACGGACGUUGACCGGUACGGUAAUA	0.212 ratio
GCUUCCCUUUUUCUCCUCACAAGGAGGUGAGGCUGGGACCUCCGGGCCAGCUUCUCACCUCACCGGGUGUACCUUUCCCGGCUCCAGCAGCCAAUGUGCUUCGGAGCCACUCUCUGCAGA	0.237 ratio
AUUUUGGAAUCAGUUCUUAUAAACAGCUCGAUUCAGUUUUAGCUAAAUUUAUAGUUCCGGCCGUAUGUUACAUUUGAAUUUUUGUCUUAAGAAAAGUUGACUGUUCAGAUAUUUUUCUAC	0.933 ratio
